Experimental data gathered from unrelated publications.
Lines come from different studies, so protocols differ. ± marks the error that the study gave.

Structure (SMILES)	test	system	conditions	measurement	value
O=C(O)c1cccc(CN2CCCNCCNCCCNCC2)n1	potentiometry	aqueous 1.0 M KCl	25 °C, L + H+ to HL	log overall protonation constant	11.1
CCCCC[C@@H]1OC(=O)[C@@H](C)N(C)C(=O)[C@H](CCCCC)OC(=O)[C@@H](C)NC(=O)[C@H](CCCCC)OC(=O)[C@@H](C)N(C)C(=O)[C@H](CCCCC)OC(=O)[C@@H](C)NC1=O	PAMPA		500 µM, pH 7.4	log Papp	2.09 ×10⁻⁶ cm/s
N#C[C@@H]1CC(F)(F)CN1C(=O)CNC(=O)c1ccnc2c(NC(=O)[C@H](CCCCNC(=O)CCOCCOCCOCCOCCOCCOCCNC(=O)CN3CCN(CC(=O)[O-])CCN(CC(=O)[O-])CCN(CC(=O)[O-])CC3)NC(=O)CCCc3ccc(I)cc3)cccc12.[177Lu+3]		octanol/PBS	pH 7.4, 177Lu-labelled	log P	-0.96 ± 0.16
CCCCC[C@@H]1OC(=O)[C@@H](C)N(C)C(=O)[C@H](CCCCC)OC(=O)[C@@H](C)N(C)C(=O)[C@H](CCCCC)N(C)C(=O)[C@@H](C)N(C)C(=O)[C@H](CCCCC)OC(=O)[C@@H](C)N(C)C1=O	PAMPA		500 µM, pH 7.4, UV/ELSD/MS detection	log Papp	-5.24
Oc1ccnc(-c2cc(O)ccn2)c1.[Cl-].[Cl-].[Ru+2].c1ccc(-c2ccnc3c2ccc2c(-c4ccccc4)ccnc23)cc1.c1ccc(-c2ccnc3c2ccc2c(-c4ccccc4)ccnc23)cc1			pH 7.4	log D octanol/water	> 3
O=C(O)C(Cc1c[nH]cn1)N1C(=O)c2ccc3c4ccc5c6c(ccc(c7ccc(c2c37)C1=O)c64)C(=O)N(C(Cc1c[nH]cn1)C(=O)O)C5=O (centres unmarked)	shake-flask	1-octanol/phosphate buffer	pH 8.0	log D	-2.23 ± 0.06
CC(C)Cc1ccc(C(C)C(=O)N[C@@H](CCCCNC(=O)CCOCCOCCOCCOCCOCCOCCNC(=O)CN2CCN(CC(=O)[O-])CCN(CC(=O)[O-])CCN(CC(=O)[O-])CC2)C(=O)Nc2cccc3c(C(=O)NCC(=O)N4CC(F)(F)C[C@H]4C#N)ccnc23)cc1.[177Lu+3] (some centres unmarked)		octanol/PBS	pH 7.4, 177Lu-labelled	log P	-0.76 ± 0.11
CN[P+](c1ccccc1)(c1ccccc1)c1ccccc1	HPLC	octanol/water	100 µM	log P	-1.28
O=C([O-])CN1CCCN2CCN(CCCN(CC(=O)NC(Cc3ccccc3)C(=O)NC(Cc3ccccc3)C(=O)NCCCC[C@H](NC(=O)CCCCCCC(=O)NCCCC[C@H](NC(=O)N[C@@H](CCC(=O)O)C(=O)O)C(=O)O)C(=O)O)CC2)CC1.[64Cu+2] (single isomer, unassigned)		octanol/water		log P	-2.68
FC(F)(F)c1cc2nc(c1)CNCc1cc(C(F)(F)F)cc(n1)CNC2	protonation constant, potentiometry		298 K, ionic strength 0.15 M NaCl	log K1	7.5
CCCCC[C@@H]1OC(=O)[C@@H](C)N(C)C(=O)[C@H](CCCCC)OC(=O)[C@@H](C)NC(=O)[C@H](CCCCC)OC(=O)[C@@H](C)NC(=O)[C@H](CCCCC)OC(=O)[C@@H](C)NC1=O	PAMPA, HPLC-UV		500 µM, pH 7.4	log Papp	-5.95 ± 0.09
c1ccc(-c2cc3cn[nH]c3nn2)cc1	IAM.PC.DD2 HPLC		pH 7.4	log k(IAM)	1.25
Clc1cc2nc(c1)CNCc1cc(Cl)cc(n1)CNC2	protonation constant, potentiometry		298 K, ionic strength 0.15 M NaCl	log K1	7.7
CN(CCNCc1ccncc1[O-])CCNCc1ccncc1[O-].[Cl-].[Fe+3]	refers to: Fe(III)		1 weeks, pH 7.4, together with: EDTA competitor	log conditional stability constant	21.1
O=C(O)CN1CCN(CC(=O)O)CCN(Cc2cccc(P(=O)(O)O)n2)CC1	potentiometric titration		first phosphonate deprotonation	log Ka	-0.3
CCCCC[C@@H]1OC(=O)[C@@H](C)NC(=O)[C@H](CCCCC)OC(=O)[C@@H](C)NC(=O)[C@H](CCCCC)OC(=O)[C@@H](C)NC(=O)[C@H](CCCCC)OC(=O)[C@@H](C)NC1=O	PAMPA, HPLC-UV		500 µM, pH 7.4	log Papp	-5.46 ± 0.07
Cc1cn(CC(=O)N(CCNC(=O)OC(C)(C)C)CC(=O)O)c(=O)[nH]c1=O	IAM chromatography		pH 7.0, 30 °C, extrapolated to 0% acetonitrile	log kW IAM	-0.49
CCCCC[C@@H]1OC(=O)[C@@H](C)N(C)C(=O)[C@H](CCCCC)N(C)C(=O)[C@@H](C)N(C)C(=O)[C@H](CCCCC)OC(=O)[C@@H](C)N(C)C(=O)[C@H](CCCCC)N(C)C(=O)[C@@H](C)N(C)C1=O	PAMPA, HPLC-UV		500 µM, pH 7.4	log Papp	-5.48 ± 0.03
O=C(O)CN1CCN(CC(=O)O)CCN(CC(O)CN(CC(O)CN2CCN(CC(=O)O)CCN(CC(=O)O)CCN(CC(=O)O)CC2)C[C@H](O)[C@@H](O)[C@H](O)[C@H](O)CO)CCN(CC(=O)O)CC1 (some centres unmarked)	pH-potentiometry, refers to: Gd2(LH-2), alcoholic OH deprotonation		25 °C, 0.15 M NaCl	log K	11.5
CC(C)(C)N1Cc2cccc(n2)CN(C(C)(C)C)Cc2cc(-c3nc4ccccc4s3)cc(n2)C1.[64Cu+2]		octanol/PBS	64Cu complex, no HPLC purification	log D	1.12
CCCCC[C@@H]1OC(=O)[C@@H](C)N(C)C(=O)[C@H](CCCCC)OC(=O)[C@@H](C)N(C)C(=O)[C@H](CCCCC)OC(=O)[C@@H](C)NC(=O)[C@H](CCCCC)OC(=O)[C@@H](C)NC1=O	PAMPA		500 µM, pH 7.4	log Papp	4.07 ×10⁻⁶ cm/s
COc1cc2cn[nH]c2nn1	IAM.PC.DD2 HPLC		pH 7.4	log k(IAM)	2.29
NCCN(CC(=O)O)C(=O)Cn1ccc(N)nc1=O	IAM chromatography		pH 7.0, 30 °C, extrapolated to 0% acetonitrile	log kW IAM	-0.75
O=C([O-])CN1CCN(CC(=O)[O-])CCN(CC(O)CN(CC(O)CN2CCN(CC(=O)[O-])CCN(CC(=O)[O-])CCN(CC(=O)[O-])CC2)C[C@H](O)[C@@H](O)[C@H](O)[C@H](O)CO)CCN(CC(=O)[O-])CC1.[Gd+3] (some centres unmarked)	pH-potentiometry, refers to: Gd(LH-1)M, M = Ca2+		25 °C, 0.15 M NaCl	log K	10.3
CCCCC[C@@H]1OC(=O)[C@@H](C)N(C)C(=O)[C@H](CCCCC)OC(=O)[C@@H](C)N(C)C(=O)[C@H](CCCCC)OC(=O)[C@@H](C)N(C)C(=O)[C@H](CCCCC)OC(=O)[C@@H](C)NC1=O	PAMPA		500 µM, pH 7.4, UV/ELSD/MS detection	log Papp	-5.86
NCCN(CC(=O)O)C(=O)Cn1cnc2c(N)ncnc21	IAM chromatography		pH 7.0, 30 °C, extrapolated to 0% acetonitrile	log kW IAM	-0.68
